Literature values as cited in several papers.
Each line is one published result; not all experiments were run side by side. ± gives the spread as reported.

SMILES | assay | system | conditions | quantity | result
CC[C@H](C)[C@H](NC(=O)CNC(=O)[C@H](CC(=O)O)NC(=O)[C@H](CCCNC(=N)N)NC(=O)[C@@H](NC(=O)[C@H](CC(N)=O)NC(=O)[C@H](CCC(N)=O)NC(=O)CNC(=O)[C@@H](NC(=O)[C@H](CCCCN)NC(=O)[C@H](CCC(=O)O)NC(=O)[C@@H](NC(=O)[C@H](CCCCN)NC(=O)[C@H](CCCCN)NC(=O)[C@H](Cc1ccccc1)NC(=O)[C@H](CC(C)C)NC(=O)[C@H](CCCCN)NC(=O)[C@H](Cc1c[nH]c2ccccc12)NC(=O)[C@@H](N)CCCCN)[C@@H](C)CC)C(C)C)[C@@H](C)CC)C(=O)N[C@H](C(=O)N[C@@H](CCCCN)C(=O)N[C@@H](C)C(=O)NCC(=O)N1CCC[C@H]1C(=O)N[C@@H](C)C(=O)N[C@H](C(=O)N[C@@H](C)C(=O)N[C@H](C(=O)N[C@H](C(=O)NCC(=O)N[C@@H](CCC(N)=O)C(=O)N[C@@H](C)C(=O)N[C@H](C(=O)N[C@@H](CCC(N)=O)C(=O)N[C@H](C(=O)N[C@@H](C)C(=O)N[C@@H](CCCCN)C(N)=O)[C@@H](C)CC)[C@@H](C)O)C(C)C)C(C)C)C(C)C)[C@@H](C)CC | membrane binding | POPC bilayers | room temperature | koff | 300 s⁻¹
COc1cc(C=O)ccc1OCc1cccc(CO)n1 | – | sickle cell whole blood | 2 mM | HbS modification | 18%
O=C(/C=C/c1ccc(OCCN2CCNCC2)cc1)c1ccccc1 | antioxidant activity | – | – | EC50 | 0.0228 µM
CC1(C)C(=O)N(c2ccc(C#N)c(C(F)(F)F)c2)C(=S)N1c1ccc(C(=O)O)c(F)c1 | – | human metastatic castration-resistant prostate cancer | dose not given | activity | inactive
COC[C@@H](NC(C)=O)C(=O)NCc1ccc(OCc2cccc(F)c2)cc1 | – | rats, tibial nerve injury | ip, 10 mg/kg | duration of reversal of allodynia | ~4 h
Cc1ccc(C(C)C)cc1.F[P-](F)(F)(F)(F)F.[Cl][Ru-]1[NH2+]CC[NH2+]1 | – | calf thymus DNA | covalent adducts | DNA unwinding angle | 7 °
O=C1N[C@@H](Cc2ccccc2)C(=O)N2CCC[C@@H]2C(=O)N[C@@H](Cc2ccccc2)C(=O)N[C@H]1Cc1c[nH]c2ccccc12 | – | C57BL/6J mouse | intracerebroventricular, dose not given | time to peak antinociception | 30 min
C[C@]12CC[C@@H](O)C[C@@H]1CC[C@@H]1[C@@H]2C(=O)C[C@]2(C)C(C#N)=CC[C@@H]12 | loss of righting reflex | tadpole | – | EC50 | 1.04 ± 0.14 µM
O=C1C2C=CC1C=C2 | CO loss | – | 300 K | rate constant | 420000 s⁻¹
COC[C@@H](NC(C)=O)C(=O)NCc1ccc(OCc2ccccc2F)cc1 | – | mouse, MES seizure | intraperitoneal, time of peak effect | ED50 | 6.7 mg/kg
F[P-](F)(F)(F)(F)F.NCCN.[Cl][Ru+].c1ccc(-c2ccccc2)cc1 | – | mouse breast cancer model, primary tumour | 7.5 mg/kg/day | tumour growth inhibition | 30%
COC[C@@H](NC(C)=O)C(=O)NCc1ccc(OCc2ccccc2)cc1 | – | mouse, MES seizure | intraperitoneal, time of peak effect | ED50 | 5.8 mg/kg
O=[N+]([O-])c1ccc(-c2cc(C3CC4CCC3N4)cnc2F)cc1 (racemic) | hypothermia | mouse | – | ED50 | 0.21 mg/kg

For quick reference, copied from above:
SMILES | assay | system | conditions | quantity | result
CC1(C)C(=O)N(c2ccc(C#N)c(C(F)(F)F)c2)C(=S)N1c1ccc(C(=O)O)c(F)c1 | – | human metastatic castration-resistant prostate cancer | dose not given | activity | inactive
COC[C@@H](NC(C)=O)C(=O)NCc1ccc(OCc2cccc(F)c2)cc1 | – | rats, tibial nerve injury | ip, 10 mg/kg | duration of reversal of allodynia | ~4 h
